Published values collected from several papers.
Lines come from different studies, so protocols differ. Several values in a cell are separate wells, animals, samples, runs or records. ± marks the error that the study gave.

Under “severe adverse events”, `CC[C@H](C)[C@@H]1NC(=O)[C@H](Cc2ccc(O)cc2)NC(=O)CCCSC[C@@H](C(=O)N(CC(=O)N[C@@H](CC(C)C)C(=O)NCC(N)=O)Cc2ccc(F)cc2)NC(=O)[C@H](CC(N)=O)NC(=O)[C@H](CCC(N)=O)NC1=O` is recorded as 0% (human; intranasal, 200 µg repeated doses).
`O=C(Nc1cnccc1-c1ccc([18F])nc1)c1ccnc(NC(=O)C2CC2)c1` has an SUV of 0.017 (ex vivo gamma counting; GSK-3β transgenic mice, early-stage, cortex; intravenous, 120 min, mean, no P-gp inhibitor).
The Vd of `COc1cc2ncnc(Oc3ccc(Nc4nccc5[nH]cc(-c6ccc(F)cc6)c(=O)c45)cc3F)c2cc1OC` is reported as 0.8 L/kg (male cynomolgus monkey, plasma; intravenous, 1.5 mg/kg).
For `CCCCN1C(=O)c2cccc3c(NCCN4CCOCC4)ccc(c23)C1=O`, the fluorescence lifetime was 10.3 ns (DMF).
`CC(C)OCCOCc1ccc(OCC(O)CN(N=O)C(C)C)cc1` (stereo not shown) — result for “T>G mutation fraction”: “increased” (mutation spectrum, duplex sequencing; NMRI mouse, liver; concentration not given).
`COc1ccc2c(c1)C(C)(C)C(/C=C/C1=C(Oc3ccc(C(=O)NCCCCOc4cc(CN(Cc5ccccn5)Cc5ccccn5)cc(CN(Cc5ccccn5)Cc5ccccn5)c4)cc3)C(=C/C=C3/N(CCCCS(=O)(=O)[O-])c4ccc(OC)cc4C3(C)C)CCC1)=[N+]2CCCCS(=O)(=O)[O-].O=[N+]([O-])[O-].O=[N+]([O-])[O-].[99Tc+].[C-]#[O+].[C-]#[O+].[C-]#[O+].[Zn+2]` gave a tracer uptake of 21.4 %ID/g (mouse, liver; 12 h).
The logP of `COc1ccc(CNc2nc([C@H]3CC[C@H](C(=O)O)CC3)nc3sc4ccccc4c23)cc1Cl` is reported as 6.66.
For `CC[C@H](C)[C@H](NC(=O)[C@H](CCC(N)=O)NC(=O)[C@@H](NC(=O)[C@@H]1CCCN1[C@@H]1CN(C(=O)[C@H](CCCCN)NC(=O)[C@H](CC(N)=O)NC(=O)[C@@H](NC(=O)[C@@H](NC(=O)[C@H](CCC(N)=O)NC(=O)[C@@H](N)C(C)C)[C@@H](C)CC)[C@@H](C)CC)CC[C@H]1NS(=O)(=O)c1ccc(C)cc1)C(C)C)C(=O)N[C@H](C(=O)N[C@@H](Cc1ccc(O)cc1)C(=O)N[C@@H](CCCCN)C(N)=O)C(C)C`, “random coil content” read 37% (circular dichroism; methanol; 125 µM, 20 °C).
For `Cc1cc(Cl)cc(S(C)=NC#N)c1NC(=O)c1cc(Br)nn1-c1ncccc1Cl` (stereo not shown), the logP was 3.37 (potentiometric).
The half-life of `C/C(N)=N/C(=N\S(=O)(=O)c1ccc(C(F)(F)F)cc1)N1C[C@H](c2ccccc2)C(c2ccc(Cl)cc2)=N1` is reported as over 2 h (metabolic stability; monkey, liver microsomes).
For `Cc1n[nH]c(C)c1CCCOc1cc(C(=O)NCCCCC(NC(=O)CN2CCN(CC(=O)[O-])CCN(CC(=O)[O-])CCN(CC(=O)[O-])CC2)C(=O)NCC2CCC(C(=O)NC(Cc3ccc4ccccc4c3)C(=O)NCCCCC(NC(=O)NC(CCC(=O)O)C(=O)O)C(=O)O)CC2)ccc1F.[68Ga+3]` (stereo not shown), the elimination half-life was 0.917 h (BALB/c mouse, blood; intravenous).
For `Cc1cc(C)nc(NC(=S)N2CCN(Cc3ccc(C(F)(F)F)cc3)CC2)c1`, the MRT(0-inf) was 2.4 h (plasma; intraperitoneal, 30 mg/kg).
`CCC(C(=O)Nc1ccc(C(N)=O)c(F)c1)n1cc(OC)c(-c2cc(Cl)ccc2-n2cc(C(F)(F)F)nn2)cc1=O` (stereo not shown) — result for “procedure-related adverse events”: 0% (healthy male humans; 50 mg, required by protocol).
`CC(C)(O)c1ncc([S@](N)(=O)=NC(=O)Nc2c3c(cc4c2CCC4)CCC3)s1`: “subjects with TEAEs” 50% (refers to: general, administration-site conditions; healthy human; oral, 100 mg, all formulations pooled).
`Cc1[nH]c(=O)c(CNC(=O)c2cc(Cl)c3c(c2C)O[C@@](C)([C@H]2CC[C@H](N(C)C)CC2)O3)c(C)c1O` has an AUC(0-last) of 12.4 µg·h/mL (human, plasma; oral, 200 mg, single dose, metabolite of valemetostat, together with: [14C]-valemetostat).
The tracer uptake of `O=C([O-])CN1CCN(CC(=O)[O-])CCN(CC(=O)[O-])CC1.[44Sc+3]` is reported as 0.04 %ID/g (mouse, brain; intravenous, 1 h).
With `CC(=O)N([O-])CCCCCNC(=O)CCC(=O)N([O-])CCCCCNC(=O)CCC(=O)N([O-])CCCCCN.[89Zr+4]` the intact complex was 98.7 ± 1.3% (radio-TLC; aqueous buffer; 3 d, pH 7.2, 37 °C, 89Zr-labelled complex, together with: NiCl2 10-fold excess).
With `N#C[C@@H]1CC(F)(F)CN1C(=O)CNC(=O)c1ccnc2c(NC(=O)[C@H](CCCCNC(=O)CCOCCOCCOCCOCCOCCOCCNC(=O)CN3CCN(CC(=O)[O-])CCN(CC(=O)[O-])CCN(CC(=O)[O-])CC3)NC(=O)CCCc3ccc(I)cc3)cccc12.[177Lu+3]` the tissue uptake was 7.78 ± 0.57 %ID/g (mouse, U-87 MG tumour xenograft, salivary gland; 1 h).
`COc1cccc(OC)c1-c1cc(C(=O)NC2(C(=O)O)C3CC4CC(C3)CC2C4)nn1-c1ccc(C(=O)N(C)CCCN(C)C(=O)[C@H](CCCCNC(=O)[C@H](CC(C)C)NC(=O)C2OC2C(=O)O)NC(=O)CN2CCN(CC(=O)[O-])CCN(CC(=O)[O-])CCN(CC(=O)[O-])CC2)cc1C(C)C.[177Lu+3]` (mixture of isomers) gave a tissue uptake of 0.26 %ID/g (mouse, HT-29 xenograft, lung; 168 h post injection).
`CN([O-])C(=O)CN1CCN(CC(=O)N(C)[O-])CCN(CC(=O)N(C)[O-])CC1.[89Zr+4]` has an intact complex of 100% (radio-TLC; human serum; 3 days, run 3).
The tissue uptake of `COc1cccc(OC)c1-c1cc(C(=O)NC2(C(=O)O)C3CC4CC(C3)CC2C4)nn1-c1ccc(C(=O)N(C)CCOCCOCCN(C)C(=O)[C@H](CCCCNC(=O)[C@H](CC(C)C)NC(=O)C2OC2C(=O)O)NC(=O)CN2CCN(CC(=O)[O-])CCN(CC(=O)[O-])CCN(CC(=O)[O-])CC2)cc1C(C)C.[177Lu+3]` (mixture of isomers) is reported as 0.05 %ID/g (mouse, HT-29 xenograft, muscle; 24 h post injection).
`O=C([O-])CN1Cc2cccc(n2)CN(CC(=O)[O-])Cc2cccc(n2)C1.[Mn+2]` — result for “Mn(II)/Mn(III) half-wave potential”: 0.772 V (differential pulse voltammetry; reference: Ag/AgCl).
For `CN(Cc1ccccc1)C(=O)CN1CCN(CC(=O)[O-])CCN(Cc2cccc(C(=O)[O-])n2)CC1.[18F-].[Sc+3]`, the tracer uptake was 1.47 %ID/g (mouse, kidney; intravenous, 1 h).
`Cc1ccc(CN2C(=O)/C(=N\c3ccc(Cl)cc3Br)c3ccccc32)cc1` gave an MCHC of 323 ± 12.6 g/L (mouse, blood; 100 mg/kg).
With `O=C(O)CCCOc1ccc([18F])cc1-c1cc(-c2ccccc2C(F)(F)F)n(-c2ccccc2)n1` the tissue uptake was 0.05 ± 0.02 %ID/g (mouse, bladder; intravenous, dose not given, 5 min).
For `CCCC[C@H](OC(C)=O)c1ccccc1C(=O)O`, the AUC(0-t) was 3.98 ± 0.96 µg·h/mL (Sprague-Dawley rats, both sexes, whole blood; intravenous, 5 mg/kg single dose).
For `O=C([O-])CN1CCN(CC(=O)[O-])CCN(Cc2cccc(C(=O)[O-])n2)CC1.[18F-].[Sc+3]`, the tracer uptake was 0.2 %ID/g (mouse, bone; intravenous, 1 h).
`O=C(CCCCCCCCCCCCCCCCC(=O)Oc1c2n(cc(C(=O)NCc3c(F)cc(F)cc3F)c1=O)CC1OC3CCC(C3)N1C2=O)Oc1c2n(cc(C(=O)NCc3c(F)cc(F)cc3F)c1=O)CC1OC3CCC(C3)N1C2=O` (stereo not shown) gave a prodrug hydrolysed of 45% (monkey plasma; 1 µM, 24 h, 1% methanol).
`O=C(Nc1cnccc1-c1ccc([18F])cc1)c1ccnc(NC(=O)C2CC2)c1` gave an SUV of 1.17 (ex vivo gamma counting; GSK-3β transgenic mice, late-stage, bladder; intravenous, 120 min, mean, P-gp inhibitor pretreatment, together with: tariquidar 15 mg/kg iv).
The tracer uptake of `CN(Cc1ccccc1)C(=O)CN1CCN(CC(=O)[O-])CCN(CC(=O)N(C)Cc2ccccc2)CC1.[44Sc+3]` is reported as 2.62 %ID/g (mouse, spleen; intravenous, 1 h).
`CC(C(=O)O)n1nc(Cn2cc3cc(OCC[18F])c(Cl)cc3n2)c2ccccc2c1=O` (racemic) has a tracer uptake of 0.01 %ID/g (rat, brain; 2 h).
The tracer uptake of `CN(Cc1ccccc1)C(=O)CN1CCN(CC(=O)N(C)Cc2ccccc2)CCN(Cc2cccc(C(=O)[O-])n2)CC1.[44Sc+3]` is reported as 0.69 %ID/g (mouse, spleen; intravenous, 1 h).
`C=C(NC(=O)c1csc(-c2nc3c(cc2O)-c2nc(cs2)C(=O)NC(C(C)O)C(=O)NC(=C(C)OC)c2nc(cs2)C(=O)NC2c4nc(cs4)C(=O)NC(COC(=O)c4c5c6c(cccc6n4O)COC(=O)C(OC4CC(C)(O)C(N(C)C)C(C)O4)C2OC5)c2nc-3cs2)n1)C(N)=O` (stereo not shown) has a Tmax of 6.08 h (ICR mice, Streptococcus pneumoniae ATCC 49169 infected, immunocompromised, blood; intravenous, 32 mg/kg/day three times daily).
The recovery of `C=CC(=O)Nc1cc(Nc2nccc(-c3cn(C)c4ccccc34)n2)c(OC)cc1N(C)CCNC` is reported as 74.4% (storage stability; human plasma; 72 h, on ice, medium QC level).
`CN([O-])C(=O)CN1CCN(CC(=O)N(C)[O-])CCN(Cc2ccccn2)CC1.[89Zr+4]` has an intact complex of 100% (radio-TLC; human serum; 2 days, run 2).
For `CN(Cc1ccccc1)C(=O)CN1CCN(CC(=O)[O-])CCN(CC(=O)[O-])CC1.[18F-].[Sc+3]`, the tracer uptake was 0.18 %ID/g (mouse, lung; intravenous, 1 h).
`N#C[C@@H]1CCCN1C(=O)CNC(=O)c1ccnc2ccc(OCCCN3CCN(C(=O)CCc4ccc5c(c4)CN4CCN(Cc6cc(CCC(=O)O)ccc6O)CC(=O)[O][Al-]([18F])([O]C(=O)C4)[O]5)CC3)cc12` (stereo partly shown) gave a tumour-to-organ ratio of 10.6 ± 0.78 (BALB/c nude mice, U-87 MG tumour; 120 min post-injection; reference: tumour over blood).
With `COCCN(C)CC(=O)NC(Cc1ccc(-c2ccccc2)cc1)B(O)O` (stereo not shown) the AUC(0-t) was 2.66 µM·h (male Sprague-Dawley rats, plasma; oral, 1 mg/kg, 24 h, citrate ester).
`Cc1nn(-c2nc3c(F)cc(F)cc3s2)c(O)c1C(c1ccc(C(F)(F)F)cc1)c1c(C)nn(-c2nc3c(F)cc(F)cc3s2)c1O` gave an AUC(0-inf) observed of 384 µg·h/mL and 354 µg·h/mL and 386 µg·h/mL (ICR mouse, plasma; oral, 50 mg/kg).
Under “fluorescence quantum yield”, `CCCCN1C(=O)c2cccc3c(NCCCN4CCOCC4)ccc(c23)C1=O` is recorded as 0.44 (acetonitrile).

Excerpt of the above:
`CC(C)OCCOCc1ccc(OCC(O)CN(N=O)C(C)C)cc1` (stereo not shown) — result for “T>G mutation fraction”: “increased” (mutation spectrum, duplex sequencing; NMRI mouse, liver; concentration not given).
`COc1ccc2c(c1)C(C)(C)C(/C=C/C1=C(Oc3ccc(C(=O)NCCCCOc4cc(CN(Cc5ccccn5)Cc5ccccn5)cc(CN(Cc5ccccn5)Cc5ccccn5)c4)cc3)C(=C/C=C3/N(CCCCS(=O)(=O)[O-])c4ccc(OC)cc4C3(C)C)CCC1)=[N+]2CCCCS(=O)(=O)[O-].O=[N+]([O-])[O-].O=[N+]([O-])[O-].[99Tc+].[C-]#[O+].[C-]#[O+].[C-]#[O+].[Zn+2]` gave a tracer uptake of 21.4 %ID/g (mouse, liver; 12 h).
The logP of `COc1ccc(CNc2nc([C@H]3CC[C@H](C(=O)O)CC3)nc3sc4ccccc4c23)cc1Cl` is reported as 6.66.
For `CC[C@H](C)[C@H](NC(=O)[C@H](CCC(N)=O)NC(=O)[C@@H](NC(=O)[C@@H]1CCCN1[C@@H]1CN(C(=O)[C@H](CCCCN)NC(=O)[C@H](CC(N)=O)NC(=O)[C@@H](NC(=O)[C@@H](NC(=O)[C@H](CCC(N)=O)NC(=O)[C@@H](N)C(C)C)[C@@H](C)CC)[C@@H](C)CC)CC[C@H]1NS(=O)(=O)c1ccc(C)cc1)C(C)C)C(=O)N[C@H](C(=O)N[C@@H](Cc1ccc(O)cc1)C(=O)N[C@@H](CCCCN)C(N)=O)C(C)C`, “random coil content” read 37% (circular dichroism; methanol; 125 µM, 20 °C).
For `Cc1cc(Cl)cc(S(C)=NC#N)c1NC(=O)c1cc(Br)nn1-c1ncccc1Cl` (stereo not shown), the logP was 3.37 (potentiometric).
The half-life of `C/C(N)=N/C(=N\S(=O)(=O)c1ccc(C(F)(F)F)cc1)N1C[C@H](c2ccccc2)C(c2ccc(Cl)cc2)=N1` is reported as over 2 h (metabolic stability; monkey, liver microsomes).
